Assay results of several laboratories.
Numbered parts are unrelated; each lists some results of a single study.

Series 1
Target: D(1A) dopamine receptor (DRD1, Homo sapiens, UniProt P21728)
UniProt P21728, sequence (whole entry, looked up): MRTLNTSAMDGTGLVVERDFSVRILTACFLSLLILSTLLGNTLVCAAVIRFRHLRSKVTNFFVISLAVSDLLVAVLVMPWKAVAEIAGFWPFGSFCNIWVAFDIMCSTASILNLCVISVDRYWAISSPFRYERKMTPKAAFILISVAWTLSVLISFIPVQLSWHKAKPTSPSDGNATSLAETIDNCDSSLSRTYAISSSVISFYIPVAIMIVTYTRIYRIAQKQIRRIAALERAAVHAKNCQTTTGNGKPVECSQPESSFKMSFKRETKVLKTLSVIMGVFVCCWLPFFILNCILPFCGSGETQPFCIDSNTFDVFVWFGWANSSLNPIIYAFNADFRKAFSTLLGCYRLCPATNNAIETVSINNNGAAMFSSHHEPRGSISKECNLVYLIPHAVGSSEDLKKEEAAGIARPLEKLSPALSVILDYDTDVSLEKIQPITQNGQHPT
Observed: ligand displacement
Concentration: 10 µM
`C[C@@H]1CN(c2cc(-c3n[nH]c4ccc(OC5(C)CC5)cc34)ncn2)C[C@H](C)O1` has an inhibition of -17.4%.
The inhibition of `COCCOc1nc(-c2ccc(Cl)nc2)nc2c1CN(C(=O)c1ncn3ccccc13)CC2` is reported as -8.34%.
`CC1=C(C#N)C(c2ccc3[nH]nc(C)c3c2)C(C#N)=C(C)N1` gave an inhibition of 6.92%.
`O=C(Nc1ccc(Oc2ccc(F)cc2)cc1)N1CCc2ncccc2[C@H]1c1ccc(F)cc1` has an inhibition of 39.1%.
For `CCC(=NO)C(C)=Cc1ccc(F)c(C)c1`, the inhibition was -0.91%.
`COc1cccc(NC(=O)c2nc3scc(CN(C)Cc4ccccc4)c3c(=O)[nH]2)c1` gave an inhibition of -11.2%.
For `CN1CCN(c2ccnc(NCCc3ccccc3)n2)CC1`, the inhibition was 26.5%.
With `O=C(NCCCC1CCCCC1)c1ccc(CNC(=O)c2cnn(-c3ccccc3)c2C(F)(F)F)cc1` the inhibition was 5.56%.
For `Nc1cnc(N2CCc3cc(S(=O)(=O)Nc4c(F)cc(Cl)cc4F)cc(N4CCCC4=O)c32)nc1`, the inhibition was -8.35%.
`CN(C)c1ncnc(-c2ccc3nc(Nc4cc(CN5CCN(C(=O)CC(F)(F)F)CC5)ccn4)[nH]c3c2)c1Cl` gave an inhibition of 23%.
The inhibition of `CC[C@H](CC(=O)O)n1c(=O)c2ncccc2n(Cc2cn(C)c3cc(C)cc(C)c23)c1=O` is reported as 20.3%.
The inhibition of `CN(C)CC#Cc1ccc(OCCCc2sc(N3CCc4cccc(C(=O)Nc5nc6ccccc6s5)c4C3)nc2C(=O)O)c(F)c1` is reported as 24.6%.
The inhibition of `CCOc1ccc(S(=O)(=O)Nc2ccc(Cl)cc2C#Cc2cnc(C(=O)O)cc2OC)c2ncccc12` is reported as 8.58%.

Series 2
Target: Beta-1 adrenergic receptor (ADRB1, Homo sapiens, UniProt P08588)
UniProt P08588, sequence (whole entry, looked up): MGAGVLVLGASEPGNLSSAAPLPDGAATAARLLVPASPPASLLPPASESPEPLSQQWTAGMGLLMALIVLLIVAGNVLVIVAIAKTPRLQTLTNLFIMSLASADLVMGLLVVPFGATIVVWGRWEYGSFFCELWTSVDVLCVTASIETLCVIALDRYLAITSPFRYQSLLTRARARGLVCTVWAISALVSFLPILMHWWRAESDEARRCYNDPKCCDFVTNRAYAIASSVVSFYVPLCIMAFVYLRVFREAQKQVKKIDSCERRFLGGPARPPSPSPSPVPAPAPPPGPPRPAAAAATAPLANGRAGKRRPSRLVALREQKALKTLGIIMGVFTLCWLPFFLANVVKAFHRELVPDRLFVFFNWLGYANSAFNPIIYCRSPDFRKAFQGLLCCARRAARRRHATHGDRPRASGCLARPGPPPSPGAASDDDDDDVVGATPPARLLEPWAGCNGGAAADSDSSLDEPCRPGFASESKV
Mode: agonist
`Cc1nnc2n1CCN(c1nc(-c3ccccc3)c3ccccc3n1)C2` has an EC50 of ≥ 100 µM.
The EC50 of `CS(=O)(=O)N(CC(O)Cn1c2ccccc2c2ccccc21)c1ccccc1I` (stereo not shown) is reported as ≥ 100 µM.
`O=C(COc1ccccc1)Nc1ccc([C@@H](O)[C@H]2COCC(=O)N2CCCc2ccccc2)cc1` has an EC50 of ≥ 100 µM.
For `Cc1ccc(-c2cc(-c3cccnc3)nc3c(C)noc23)c(C)c1`, the EC50 was ≥ 100 µM.
With `OC(COc1ccc(CN2CCC(F)(F)CC2)cc1)CN1CCCCC1` (stereo not shown) the EC50 was ≥ 100 µM.
`Cc1oc(C(O)c2cccc(O)c2)nc1C(=O)NC1CCOCC1` (stereo not shown) has an EC50 of ≥ 100 µM.
For `CC(CCc1ccc(O)cc1)NCC(O)c1ccc(O)cc1` (stereo not shown), the EC50 was ≥ 100 µM.
With `COc1ccccc1N1CCN(C(=O)C(C)[C@@H]2CCc3c(C)cc(OCCN4CCOCC4)c(C)c3C2)CC1` (stereo partly shown) the EC50 was ≥ 100 µM.
`CN(Cc1cccc(OCC(O)CN2CCOCC2)c1)Cc1ccc2nonc2c1` (stereo not shown) has an EC50 of ≥ 100 µM.
With `Cc1noc(C)c1-c1cnc(Nc2cccc(C(F)(F)F)c2)c2c1CCO2` the EC50 was ≥ 100 µM.
With `Cc1noc2c(-c3cccc(O)c3)cc(-c3cccs3)nc12` the EC50 was ≥ 100 µM.

Series 3
Target: Cyclin-dependent kinase 6, with cyclin D1 (CDK6, Homo sapiens, UniProt Q00534)
UniProt Q00534, sequence (whole entry, looked up): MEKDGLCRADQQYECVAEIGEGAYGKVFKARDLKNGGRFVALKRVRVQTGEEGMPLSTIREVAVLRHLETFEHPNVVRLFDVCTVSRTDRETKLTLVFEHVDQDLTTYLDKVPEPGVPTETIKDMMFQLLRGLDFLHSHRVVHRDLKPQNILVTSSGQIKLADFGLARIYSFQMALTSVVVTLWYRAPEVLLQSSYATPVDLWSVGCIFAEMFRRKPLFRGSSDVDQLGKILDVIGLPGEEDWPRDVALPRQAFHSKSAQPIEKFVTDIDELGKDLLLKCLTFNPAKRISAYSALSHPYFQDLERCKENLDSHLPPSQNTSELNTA
Observed: enzyme activity
Mode: inhibitor
Concentration: 0.5 µM
Reference: control
`CCOc1nc(NC(=O)Cc2cc(OC)ccc2OC)cc(N)c1C#N` gave a remaining activity of 95.2%.
`Cc1cc2ncc(-c3ccccc3)nc2cc1C` has a remaining activity of 87.1%.
`O=C(Nc1cccc(Nc2nccc(Nc3cccc(C(F)(F)F)c3)n2)c1)C1CC1` gave a remaining activity of 93.4%.
For `CN(C)C[C@H]1CCn2c(c(C3=C(c4cn(C)c5ccccc45)C(=O)NC3=O)c3ccccc32)C1`, the remaining activity was 70.5%.
`Nc1cccc(-c2cc3c(Oc4cccc(O)c4)ncnc3[nH]2)c1` has a remaining activity of 82.2%.
For `c1ccc(-c2cnc(Nc3ccc(OCCN4CCCC4)cc3)s2)cc1`, the remaining activity was 40.3%.
With `O=C1c2ccccc2-c2n[nH]c3cccc1c23` the remaining activity was 88.6%.
`Cc1nc2cc3nc(-c4cccs4)cnc3cc2n1C` gave a remaining activity of 99.3%.
The remaining activity of `O=c1cc(-c2cccc3c2Sc2ccccc2S3)oc(N2CCOCC2)c1` is reported as 98.1%.
The remaining activity of `N#Cc1c(NC(=O)c2cccc3ccccc23)sc2c1CCCC2` is reported as 94%.
With `O=C(NC(NC(=S)Nc1ccc(F)c([N+](=O)[O-])c1)C(Cl)(Cl)Cl)C(c1ccccc1)c1ccccc1` (stereo not shown) the remaining activity was 101%.
With `CCN(CC)CCNC(=O)c1c(C)[nH]c(/C=C2\C(=O)Nc3ccc(F)cc32)c1C` the remaining activity was 50.5%.
`Ic1cccc(CSc2nnc(-c3ccncc3)o2)c1` gave a remaining activity of 97.5%.
`N#C/C(=C\c1ccc(O)c(O)c1)C(=O)NCc1ccccc1` gave a remaining activity of 95.6%.

Series 4
Host: mouse
Medium: microsomes or S9
Concentration: 2 µM
Time: 0.5 h
`O=c1c2ccc(Cl)cc2ncn1CCS(=O)(=O)c1cc(Cl)ccc1Cl` has a remaining compound of 81.3%.
For `CCCOCC1CC(n2cncn2)C(c2ccc(Cl)cc2)=NO1` (stereo not shown), the remaining compound was 19.5%.
`O=S1(=O)CCC(S(=O)(=O)N2CCN(c3ccccc3)CC2)C1` (stereo not shown) has a remaining compound of 34.6%.
`CN(C)S(=O)(=O)c1cc2c(cc1N1CCN(c3ccccn3)CC1)Oc1ccccc1NC2=O` has a remaining compound of 7.07%.
With `O=S1(=O)c2cccc3cccc(c23)N1CCc1ccccc1` the remaining compound was 17.6%.
`O=C1Nc2ccccc2C12Oc1ccccc1C1CC(c3cccnc3)=NN12` (stereo not shown) gave a remaining compound of 18.9%.
`COc1nn(C)c(=O)n1-c1cccc(Cl)c1Cl` gave a remaining compound of 6.45%.
`Fc1cc(F)cc(-c2noc3ncnc(Nc4ccc(-c5ccno5)cc4)c23)c1` has a remaining compound of 8.42%.
For `Cc1c2c(=O)[nH]cnc2c(C(=O)c2ccccc2)n1-c1ccccc1`, the remaining compound was 80.9%.
`CC(C)CN1C(=O)CCC[C@]12CN(Cc1ccnc(N3CCCC3)n1)C[C@H]2c1ccccc1` gave a remaining compound of 0.0168%.
With `Cc1ccc(CN(CCCn2ccnc2)Cc2ccc3ncccc3c2)s1` the remaining compound was 74.7%.
`Clc1ccc(OCCn2cnc(Cl)c2Cl)cc1` has a remaining compound of > 99%.
With `O=S(=O)(NCCn1c(-c2ccncc2)nc2ccccc21)c1ccc(Br)s1` the remaining compound was 1.7%.
`COc1cc(Br)c(S(=O)(=O)N[C@@H]2CCCN(C(=O)c3ccccc3)C2)cc1OC` has a remaining compound of 14.4%.

Some of these lines once more (series 4):
`Fc1cc(F)cc(-c2noc3ncnc(Nc4ccc(-c5ccno5)cc4)c23)c1` has a remaining compound of 8.42%.
For `Cc1c2c(=O)[nH]cnc2c(C(=O)c2ccccc2)n1-c1ccccc1`, the remaining compound was 80.9%.
`CC(C)CN1C(=O)CCC[C@]12CN(Cc1ccnc(N3CCCC3)n1)C[C@H]2c1ccccc1` gave a remaining compound of 0.0168%.
